Published values gathered from unrelated publications.
Compare with care: the assays were run in different laboratories. Values joined by “and” are separate records of one study, mostly repeats; a detail may differ. ± marks the error that the study gave.
AKR1B1: Aldo-keto reductase family 1 member B1 (AKR1B1, Homo sapiens, UniProt P15121)
GUK1: GUK1 (Homo sapiens, UniProt Q16774)
Kir3.1/Kir3.4: Kir3.1/Kir3.4 (Homo sapiens, UniProt P48544+P48549)

Structure (SMILES)	tested on	assay	system	setting	scale	quantity	result
O=S(=O)(O)C1CCNCC1	Sodium- and chloride-dependent taurine transporter (SLC6A6, Homo sapiens, UniProt P31641, G62A)	binding, microscale thermophoresis		1 mM, room temperature, with: 50 nM labelled protein	higher = more binding	normalised MST signal	0.0711
Cc1ccc(/C=C2\SC(=O)N(CC(=O)c3ccc([N+](=O)[O-])cc3)C2=O)cc1	AKR1B1	enzyme activity, inhibitor				Hill slope	-0.694
CC(=O)NCC(=O)NCC(=O)N[C@H](C(=O)N[C@@H](Cc1ccc(O)cc1)C(=O)N[C@@H](CO)C(=O)N[C@H]1CSSC[C@@H](C(=O)N[C@@H](CCCNC(=N)N)C(=O)N2CCC[C@H]2C(=O)N[C@@H](CCC(N)=O)C(=O)N[C@@H](CCCNC(=N)N)C(=O)NCC(=O)NCCC(=O)N[C@@H](CCCCNC(=O)CN(CC(=O)NCCCC[C@H](NC(=O)CCNC(=O)CNC(=O)[C@H](CCCNC(=N)N)NC(=O)[C@H](CCC(N)=O)NC(=O)[C@@H]2CCCN2C(=O)[C@H](CCCNC(=N)N)NC(=O)[C@@H]2CSSC[C@H](NC(=O)[C@H](CO)NC(=O)[C@H](Cc3ccc(O)cc3)NC(=O)[C@@H](NC(=O)CNC(=O)CNC(C)=O)[C@@H](C)O)C(=O)N[C@@H](Cc3c[nH]cn3)C(=O)N[C@@H](Cc3ccccc3)C(=O)NCC(=O)N[C@@H](C)C(=O)N[C@@H](CC(C)C)C(=O)N[C@@H]([C@@H](C)O)C(=O)N[C@@H](Cc3c[nH]c4ccccc34)C(=O)N[C@@H](C(C)C)C(=O)N2)C(N)=O)C(=O)CCN)C(N)=O)NC(=O)[C@H](C(C)C)NC(=O)[C@H](Cc2c[nH]c3ccccc23)NC(=O)[C@H]([C@@H](C)O)NC(=O)[C@H](CC(C)C)NC(=O)[C@H](C)NC(=O)CNC(=O)[C@H](Cc2ccccc2)NC(=O)[C@H](Cc2c[nH]cn2)NC1=O)[C@@H](C)O	Erythropoietin receptor, extracellular domain (Homo sapiens, UniProt P19235)	binding, SPR		1:1 binding model		koff	0.000367 s⁻¹
CC1=NN(c2cc(Cl)ccc2Cl)C(=O)C1=NNc1ccc(S(N)(=O)=O)cc1	bovine α-glucosidase	enzyme activity, inhibitor, glucose oxidase		10 µg/mL, with: maltose		inhibition	28.941 ± 0.0011%
O=C(O)C/C=C/CC(=O)O		binding, MIDAS equilibrium dialysis LC-MS	A2AR-BRIL thermostabilized	concentration not given	baseline: no-protein control	log2 fold change	-0.0945
CC(=O)N[C@H](C(=O)N1C[C@H](O)C[C@H]1C(=O)NCc1ccc(-c2scnc2C)cc1)C(C)(C)SCCCCCCNC(=O)C[C@@H]1N=C(c2ccc(Cl)cc2)c2c(sc(C)c2C)-n2c(C)nnc21	BRD2/VHL, BD1; with VCB (Homo sapiens, UniProt P25440+P40337, K107A/Q101K/V106E)	ITC		25 °C, BRD2 BD1 KEA mutant, ternary		ΔH	-5.2 ± 0.2 kcal/mol
CCCCC[C@H](O)/C=C/[C@H]1[C@H](O)CC(=O)[C@@H]1C/C=C\CCCC(=O)O	Prostaglandin E2 receptor EP1 subtype (PTGER1, Homo sapiens, UniProt P34995, F334L/G92S/P39S)	IP1 accumulation, agonist	AD293	1 h	baseline: wild type receptor	Emax	103 ± 3.17%
CCc1oc2ccccc2c1C(=O)c1cc(Br)c(O)c(Br)c1	Solute carrier family 22 member 12 (SLC22A12, Homo sapiens, UniProt Q96S37)	inhibitor	HEK-293T	0.3 µM, 10 min, 37 °C, with: [14C]urate 10 µM		normalized urate uptake	0.729 and 0.738 and 0.767
c1ccc(-c2n[nH]cc2-c2ccnc3ccccc23)nc1	Cyclin-dependent kinase 1 (CDC28, Candida albicans, UniProt P43063)	kinase binding, competitor, MIB/MS competition, measured: CDC28	Candida albicans cell lysate	1 µM	baseline: DMSO	log2 fold change	1.44
Cc1nc2ncnn2c(Nc2ccc(C(F)(F)F)cc2)c1C	Dihydroorotate dehydrogenase (quinone) (pyrD, Acinetobacter baumannii, UniProt B7GZW7)	enzyme activity, inhibitor, colorimetric HTS, measured: DCIP reduction		3 µM	direction not given	robust Z-score	15.5
CC1(C)CC2(C)OC(=O)NC2(C)c2ccccc21 (stereo not shown)	Protein transport protein Sec31A (SEC31A, Homo sapiens, UniProt O94979)	binding, affinity selection mass spectrometry			baseline: other proteins in batch	fold enrichment	0.895
O=C(Nc1ccccc1OS(=O)(=O)c1cccs1)c1ccc2ncccc2c1	P2X purinoceptor 4 (P2RX4, Homo sapiens, UniProt Q99571)	calcium mobilization	MCF7 stably transfected	100 µM, with: ATP 100 µM		fluorescence increase	83.1 ± 1.44%
NC(CCCC(=O)O)C(=O)O (stereo not shown)		binding, MIDAS equilibrium dialysis LC-MS	A2AR-BRIL thermostabilized	concentration not given	baseline: no-protein control	log2 fold change	-0.105
Nc1ncnc2c1ncn2[C@@H]1O[C@H](COP(=O)(O)OP(=O)(O)O)[C@@H](O)[C@H]1O	GUK1	ITC		molar ratio 2.17		ΔH	-0.354 kcal/mol
Nc1ncnc2c1ncn2[C@@H]1O[C@H](COP(=O)(O)CP(=O)(O)OP(=O)(O)O)[C@@H](O)[C@H]1O	P2X purinoceptor 1 (P2RX1, Homo sapiens, UniProt P51575, K136A)	calcium influx		3.16 nM	baseline: ionomycin response	calcium influx	0%
O=C(CN1C(=O)S/C(=C\c2ccc([N+](=O)[O-])cc2)C1=O)c1ccc([N+](=O)[O-])cc1	AKR1B1	enzyme activity, inhibitor				log IC50	2.36 log nM

Structure (SMILES)	tested on	assay	system	setting	scale	quantity	result
Nc1nc2c(ncn2[C@@H]2O[C@H](COP(=O)(O)O)[C@@H](O)[C@H]2O)c(=O)[nH]1	GUK1	enzyme activity, NADH-coupled		7.812 µM, with: KCl 150 mM		reaction velocity	-0.0166 µM/s and 0.00485 µM/s and -0.000526 µM/s
O=C(c1ccc(C(=O)N2CCC(N3CCCC3)CC2)c(Nc2ccccc2)c1)N1CCC(N2CCCC2)CC1	Lethal(3)malignant brain tumor-like protein 3 (Homo sapiens, UniProt Q96JM7)	FRAP	human cells	0.01 µM		diffusion coefficient	0.0428 µm2/s
NCCCS(=O)(=O)O	Sodium- and chloride-dependent taurine transporter (SLC6A6, Homo sapiens, UniProt P31641, Y138A)	binding, microscale thermophoresis		125 µM, room temperature, with: 50 nM labelled protein	higher = more binding	normalised MST signal	0.464
CNc1ncc2c(/C=C/C(=O)N3CCC(OC)CC3)nn(Cc3cccc(C(F)(F)F)c3)c2n1	Non-receptor tyrosine-protein kinase TNK1 (TNK1, Homo sapiens, UniProt Q13470)	kinase activity, inhibitor		1 µM	baseline: untreated control	remaining activity	89%
CSCC[C@H](N)C(=O)Nc1ccc2ccccc2c1	rat aminopeptidase III	substrate		MW 110 kDa		kcat	5.17 s⁻¹
CCCCC[C@H](O)/C=C/[C@H]1C(=O)C[C@H](O)[C@@H]1C/C=C\CCCC(=O)O	Prostaglandin D2 receptor (PTGDR, Homo sapiens, UniProt Q13258, D72N)	agonist		0.1562 µM		activation	89.2%
CC(=O)Nc1ccc(O)cc1	Bromodomain-containing protein 4 (BRD4, Homo sapiens, UniProt O60885)	19F NMR, measured: tyrosine 119		188 µM	baseline: free protein	chemical shift change	0.094 ppm
CC(C)[C@H](NC(=O)c1cc(-c2cnn3cc(-c4ccc(OCCN5CCCCC5)cc4)cnc23)cs1)C(F)(F)F	PKN2 (human)	radiometric kinase		15 nM	baseline: PKN2 over ULK1	relative inhibition	0
CC(=C/C(=O)O)/C=C/C=C(\C)C1C=C2C(C)(C)CCCC2(C)O1 (stereo not shown)	Rhodopsin (RHO, Homo sapiens, UniProt P08100, T17M)	immunostaining, measured: opsin	COS-7 transfected	20.00 µM, unit not given	baseline: surface over total stained cells	plasma membrane localization	0.89
O=C1S/C(=C\c2ccc(Cl)cc2)C(=O)N1Cc1nc2ccccc2s1	AKR1B1	enzyme activity, inhibitor				log IC50	2.21 log nM
CC1=NNC(=O)C1=NNc1ccc(S(N)(=O)=O)cc1	bovine α-glucosidase	enzyme activity, inhibitor, glucose oxidase		50 µg/mL, with: maltose		inhibition	29.7%
O=C(COc1cccc(Cl)c1Cl)Nc1cc(C2CC2)nn1C1CCC(F)(F)CC1	Kir3.1/Kir3.4	thallium flux, activator	HEK293		baseline: standard compound	Emax	36%
O=c1nc(SCc2ccc(C(F)(F)F)cc2)nc(SCc2csc3ccc(Cl)cc23)[nH]1	DNA topoisomerase 2-alpha (TOP2A, Homo sapiens, UniProt P11388)	decatenation		0.49 µM		mean decatenated DNA	0%
Cc1cc(NC(=O)C2CCc3cc(Cl)ccc3O2)n(C2CCS(=O)(=O)C2)n1 (stereo not shown)	Kir3.1/Kir3.4	thallium flux, activator	HEK293		baseline: standard compound	Emax	58%
C[C@]12C[C@H](O)[C@H]3[C@@H](CCC4=CC(=O)CC[C@@]43C)[C@@H]1CC[C@@H]2C(=O)CO	Cytochrome P450 11B1, mitochondrial (CYP11B1, Homo sapiens, UniProt P15538)	substrate		100 µM, 37 °C, phospholipid vesicles		NADPH consumption rate, 18-hydroxylation	5.6 ± 1.1 min⁻¹

For quick reference, copied from above:
Structure (SMILES)	tested on	assay	system	setting	scale	quantity	result
CC(=O)N[C@H](C(=O)N1C[C@H](O)C[C@H]1C(=O)NCc1ccc(-c2scnc2C)cc1)C(C)(C)SCCCCCCNC(=O)C[C@@H]1N=C(c2ccc(Cl)cc2)c2c(sc(C)c2C)-n2c(C)nnc21	BRD2/VHL, BD1; with VCB (Homo sapiens, UniProt P25440+P40337, K107A/Q101K/V106E)	ITC		25 °C, BRD2 BD1 KEA mutant, ternary		ΔH	-5.2 ± 0.2 kcal/mol
CC1=NN(c2cc(Cl)ccc2Cl)C(=O)C1=NNc1ccc(S(N)(=O)=O)cc1	bovine α-glucosidase	enzyme activity, inhibitor, glucose oxidase		10 µg/mL, with: maltose		inhibition	28.941 ± 0.0011%
CC1(C)CC2(C)OC(=O)NC2(C)c2ccccc21 (stereo not shown)	Protein transport protein Sec31A (SEC31A, Homo sapiens, UniProt O94979)	binding, affinity selection mass spectrometry			baseline: other proteins in batch	fold enrichment	0.895
